Earlier results that unrelated publications cite.
Lines come from different studies, so protocols differ. Numbers after ± are the reported error.
Chain of UniProt P23977 (whole entry, looked up): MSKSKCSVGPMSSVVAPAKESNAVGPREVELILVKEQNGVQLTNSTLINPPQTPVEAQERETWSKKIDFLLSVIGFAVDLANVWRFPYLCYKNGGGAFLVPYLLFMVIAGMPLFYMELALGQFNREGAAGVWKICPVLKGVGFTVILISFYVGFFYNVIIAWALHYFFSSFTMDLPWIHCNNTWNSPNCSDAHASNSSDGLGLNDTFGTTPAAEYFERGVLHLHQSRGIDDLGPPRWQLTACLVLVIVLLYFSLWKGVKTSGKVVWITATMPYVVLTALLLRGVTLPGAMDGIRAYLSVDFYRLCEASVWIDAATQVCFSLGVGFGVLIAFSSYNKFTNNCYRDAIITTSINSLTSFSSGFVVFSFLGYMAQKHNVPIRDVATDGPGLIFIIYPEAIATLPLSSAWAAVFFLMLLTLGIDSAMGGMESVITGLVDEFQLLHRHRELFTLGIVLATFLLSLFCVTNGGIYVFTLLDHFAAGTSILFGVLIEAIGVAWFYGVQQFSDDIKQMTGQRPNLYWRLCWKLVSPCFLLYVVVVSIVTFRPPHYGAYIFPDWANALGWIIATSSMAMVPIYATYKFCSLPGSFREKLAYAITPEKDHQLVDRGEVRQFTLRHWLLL
Chain of UniProt P35372 (whole entry, looked up): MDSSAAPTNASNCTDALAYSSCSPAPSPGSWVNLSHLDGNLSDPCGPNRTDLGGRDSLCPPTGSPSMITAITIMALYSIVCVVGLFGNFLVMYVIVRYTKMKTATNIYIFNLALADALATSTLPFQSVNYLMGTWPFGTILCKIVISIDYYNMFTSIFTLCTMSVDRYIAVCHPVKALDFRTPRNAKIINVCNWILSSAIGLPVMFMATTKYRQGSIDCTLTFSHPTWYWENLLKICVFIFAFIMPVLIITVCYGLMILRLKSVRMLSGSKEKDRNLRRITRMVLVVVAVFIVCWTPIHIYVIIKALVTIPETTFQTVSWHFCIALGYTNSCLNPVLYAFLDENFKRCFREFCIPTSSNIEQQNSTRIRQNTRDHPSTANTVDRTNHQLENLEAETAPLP
Chain of UniProt P28566 (whole entry, looked up): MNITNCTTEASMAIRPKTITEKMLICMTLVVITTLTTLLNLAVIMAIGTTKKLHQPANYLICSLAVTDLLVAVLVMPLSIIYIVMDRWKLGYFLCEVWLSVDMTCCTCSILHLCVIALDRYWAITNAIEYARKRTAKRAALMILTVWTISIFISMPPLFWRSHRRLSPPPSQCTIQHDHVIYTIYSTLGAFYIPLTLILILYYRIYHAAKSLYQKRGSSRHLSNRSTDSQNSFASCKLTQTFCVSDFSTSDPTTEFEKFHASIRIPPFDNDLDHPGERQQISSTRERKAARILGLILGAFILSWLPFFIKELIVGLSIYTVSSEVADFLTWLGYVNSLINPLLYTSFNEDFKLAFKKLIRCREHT

`Nc1ncnc2c1nc(Br)n2C1OC2COP(O)(=S)OC2C1O` (stereo not shown): “Km or Ki” 28.1 µM (PDE10; cyclic nucleotide hydrolysis, substrate or inhibitor, isothermal titration calorimetry).
With `COCCNCC(O)Cn1c2ccc(Cl)cc2c2cc(Cl)ccc21` (stereo not shown) the IC50 was 3.9 µM (Trypanosoma cruzi; Tulahuen C4 LacZ).
With `C#CCCCCCC(=O)N(C)[C@H](C(=O)N(C)[C@H](C(=O)N(C)[C@H](C(=O)N(C)[C@@H](C)C(=O)N(C)[C@@H](Cc1ccccc1)C(=O)N(C)C)C(C)C)C(C)C)C(C)C` the IC50 was 5.9 µM (Leishmania donovani).
For `COC(=O)[C@H]1[C@@H](OC(=O)c2ccccc2)C[C@@H]2CC[C@H]1N2C`, EC50 read “inactive” (Sodium-dependent dopamine transporter (Slc6a3, Rattus norvegicus, UniProt P23977); transporter-mediated release, substrate; rat brain synaptosomes).
With `C#CCCCCCC(=O)N(C)[C@H](C(=O)N(C)[C@H](C(=O)N(C)[C@H](C(=O)N(C)[C@@H](C)C(=O)N(C)[C@@H](Cc1ccccc1)C(=O)OC)C(C)C)C(C)C)C(C)C` the IC50 was greater than 14 µM (Leishmania donovani).
`Cn1c(=O)n(C)c2cc(CNCCNc3ccnc4cc(Cl)ccc34)ccc21` gave an IC50 of 16.9 µM (Trypanosoma cruzi; Tulahuen C4 LacZ).
`C=CCN(CC=C)CCc1c[nH]c2ccccc12` gave a Ki of 0.378 µM (5-hydroxytryptamine receptor 1E (HTR1E, Homo sapiens, UniProt P28566); binding; cloned human receptor; together with: [3H]5-HT).
`C#CCCCCCC(=O)N(C)[C@H](C(=O)N(C)[C@H](C(=O)N(C)[C@H](C(=O)N(C)[C@@H](C)C(=O)N(C)[C@@H](Cc1ccccc1)C(=O)O)C(C)C)C(C)C)C(C)C` has an IC50 of greater than 14 µM (Leishmania donovani).
For `C=CCN(CC=C)CCc1c[nH]c2ccc(OC)cc12`, the Ki was greater than 10 µM (Mu-type opioid receptor (OPRM1, Homo sapiens, UniProt P35372)).
`CCOc1ccc(/C=C/c2nc(=O)c3ccccc3o2)cc1` has an IC50 of 17.8 µM (Trypanosoma cruzi; Tulahuen C4 LacZ).
`C#CCCCCC(=O)N(C)[C@H](C(=O)N(C)[C@H](C(=O)N(C)[C@H](C(=O)N(C)[C@@H](C)C(=O)N(C)[C@@H](Cc1ccccc1)C(=O)O)C(C)C)C(C)C)C(C)C` has an IC50 of 5.6 µM (Leishmania donovani).
For `CCCCCCCCC[C@@]1(CO)CC[C@@H](C)C(=O)O1`, the IC50 was 110 µM (Chromobacterium violaceum; violacein production; quorum sensing).
`C[N+]1=C2C=C(NCCc3ccc(O)cc3)C(=O)c3[nH]cc(c32)CC1` gave an IC50 of less than 0.05 µM (Plasmodium falciparum; parasite growth; Dd2, multidrug-resistant).
`FC(F)(F)c1cccc(CNC2CCN(CCc3ccccc3)CC2)c1` gave an IC50 of 15.7 µM (Trypanosoma cruzi; Tulahuen C4 LacZ).
The IC50 of `O=c1[nH]c2c([N+](=O)[O-])cccc2cc1Br` is reported as 3.9 ± 0.1 µM (Trypanosoma brucei brucei; nitroreductase overexpressing; trypomastigotes).
`Cc1cc(CCCOc2c(C)cc(-c3noc(C(F)(F)F)n3)cc2C)on1` gave an IC50 of no more than 0.03 µM (Enterovirus; viral replication; clinical isolates).

Repeated from above:
For `C=CCN(CC=C)CCc1c[nH]c2ccc(OC)cc12`, the Ki was greater than 10 µM (Mu-type opioid receptor (OPRM1, Homo sapiens, UniProt P35372)).
